Measured values of several laboratories.
Parts stem from different laboratories: compare values within a part only.

Block 1 — technique: RNA Bind-n-Seq; form: RNA; matrix: in vitro; tested at: not given; setting: RNA with constant flanks, ends assumed; relative to: input RNA pool; direction: higher = stronger binding; measurement: bound/input enrichment
Target: RING finger protein unkempt homolog, zinc fingers 1-6, GST-SBP tag (UNK, Homo sapiens, UniProt Q9C0B0, residues 30-357)
Shared flanks, not repeated: GGGAGUUCUACAGUCCGACGAUC … CAACAGAGGAUUGAGCAUCA
Target sequence (chain): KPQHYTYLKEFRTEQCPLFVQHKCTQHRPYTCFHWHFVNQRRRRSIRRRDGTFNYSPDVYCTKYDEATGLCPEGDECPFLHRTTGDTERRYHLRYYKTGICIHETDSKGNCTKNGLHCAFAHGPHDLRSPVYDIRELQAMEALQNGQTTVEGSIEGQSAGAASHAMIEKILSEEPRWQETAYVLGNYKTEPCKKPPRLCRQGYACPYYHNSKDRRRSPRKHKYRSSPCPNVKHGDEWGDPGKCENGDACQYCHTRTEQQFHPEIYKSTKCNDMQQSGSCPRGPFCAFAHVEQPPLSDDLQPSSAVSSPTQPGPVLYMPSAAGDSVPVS
CAUAUCAGUGACGUGGUGCUGGACAAGGCCAAUAAAACACCACUGCGGCCACUGGAUCCCACCCGACUACAAGGCAUAAAUUGUGGCCCAGACUUCACUCCAUCCUUUGCCAACCUUGGC: 0.0469 ratio
CUGUUCUCCUAUGGUUGAUAAAGCUUUAAAUACUAUUUAAAGUGGUUCUGGUCUGUACUUACCCGCACUUCCCUGAACAGUCUCAAAAUAGCCUAAACAUAAGAAAACAAUCCUGCAAAG: 0.523 ratio
GCUAUCUAUGUCCAAGCACUGAUUUUUCGCCUGGAAGGAAAUAUCCAAGAAUCCCCCGAACUCUUUCAGACAUGUGCUGUUCUCAGCCCACAGUGUGCUGAUAAUCUCAAGCAGGUGGCC: 0.159 ratio
AAAAAAAGAAUAAAAAUCAGCCAUUUUCAACAAUUUAUAUUAUUUUUAAAAAUAAAUUUCACCCGUGCAUGGUUUUAAAAAGGAGAGAGAAUGCAACAGGGUGAUACAAAGAUACACCAU: 3.18 ratio
CUUUUUGAAUCUUUCAAGAGUUUUGAAGGUCUCUUUUAUUUUCUGGGAUCCAUUGUUAACUUCCGCCAGGACCCAGAUGUGCACUUUAAAUAUAUUCAGGCAGCUUGCAAGACUGGGCAA: 0.48 ratio
CUAAGUUCUUAACACAUAGUUUUGGACCUCAAAAUAACAUUUUAGAGUUAUUCUAGGCUCAACCGUUUUUGCUUUAGAUAAUUAUUACAUUUUCCUAAAUUUGUAAUUGCUUUAUUCUGU: 4.29 ratio
GAUGUGGAAAUAAUCUUUAAUGAGCGCGGCUCCAAGGGAUUCGGGUUCGUAACUUUCGAGAACCGUGCUGAUGCAGACAGGGCCAGGGAGAAAUUGCACGGCACCGUGGUAGAGGGCCGU: 0.366 ratio

Block 2 — technique: protein binding microarray; form: double-stranded DNA, one strand shown; matrix: in vitro; tested at: not given; relative to: not given; direction: higher = stronger binding; measurement: E-score
Target: Histone acetyltransferase KAT6A, both winged helices, GST fusion (KAT6A, Homo sapiens, UniProt Q92794, residues 1-181)
Setting: 8-mer, flanks averaged, mean of 2 arrays, mostly near background
Target sequence (chain): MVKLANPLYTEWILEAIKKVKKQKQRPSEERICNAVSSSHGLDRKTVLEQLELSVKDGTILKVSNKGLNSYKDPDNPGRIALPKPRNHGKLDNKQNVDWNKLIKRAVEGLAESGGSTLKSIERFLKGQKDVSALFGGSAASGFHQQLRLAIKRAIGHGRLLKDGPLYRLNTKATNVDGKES
CTGAATTC: -0.13
GAGTTTGA: 0.008
CCCGCTTC: 0.104
ATCCACAG: -0.0813
AAGAGAGA: -0.286
CAGTTCCC: 0.111
CACACCTA: -0.0371
CCAGCACA: -0.191
ATAGGAAC: -0.131

Block 3 — technique: protein-binding microarray; form: double-stranded DNA, one strand shown; matrix: in vitro; tested at: 250 nM; setting: 60-bp whole probe; with: salmon DNA 0.4 mg/ml; relative to: random background probes; direction: higher = stronger binding; measurement: log fluorescence; shared flanks, not repeated: GCCTAGCAC … GTCTTGATTCGCTTGACGCTGCTG
Target: Interferon regulatory factor 7, full length, phosphomimetic (IRF7, Homo sapiens, UniProt Q92985, residues 1-503, S101K/S471D/S472D/S475D/S476D/S477D/S483D/S484D/S487D)
Chain of UniProt Q92985 (whole entry, unmodified, looked up): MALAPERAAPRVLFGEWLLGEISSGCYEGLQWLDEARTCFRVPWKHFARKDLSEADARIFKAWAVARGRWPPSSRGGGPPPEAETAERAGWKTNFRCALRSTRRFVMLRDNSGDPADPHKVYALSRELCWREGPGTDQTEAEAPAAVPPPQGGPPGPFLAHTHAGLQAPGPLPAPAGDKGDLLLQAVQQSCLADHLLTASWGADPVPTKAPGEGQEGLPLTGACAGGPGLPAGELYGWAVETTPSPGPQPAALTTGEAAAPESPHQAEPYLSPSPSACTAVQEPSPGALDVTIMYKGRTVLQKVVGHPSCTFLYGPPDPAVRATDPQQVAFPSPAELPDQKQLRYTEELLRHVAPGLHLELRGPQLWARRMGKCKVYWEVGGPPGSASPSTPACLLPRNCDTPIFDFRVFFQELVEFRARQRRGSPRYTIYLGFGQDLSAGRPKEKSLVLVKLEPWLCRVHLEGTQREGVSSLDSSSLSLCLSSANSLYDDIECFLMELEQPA
GACGAGTTCGGGTATCGAGACGTGCTA: 0.569 z-score
TCAATTTTCATTAACTGACTGTGCTAG: 0.66 z-score
GTCGGTATCCTTCTCCTGACGTGCTAG: 0.635 z-score
CTAGTTGTGATTCTTTCGATGTGCTAG: 1.6 z-score
GACGATTTCAGTTTCGAGAAGTGCTAG: 2.74 z-score
TTGCATCGTAAGCAAAAATGGTGCTAG: -0.341 z-score

Further values, each from its own experiment
PhoQ, residues 284 288 289 292 302 303 SQSLSM
fold induction (PhoP, residues 12 14 15 18 19 NQGLL (Escherichia coli, UniProt P23836); Sort-seq, measured: YFP reporter; E. coli; PhoQ-PhoP variant library, with: 10 µM Mg2+; relative to: high Mg2+ state, higher = stronger signaling): 1.32

A few entries again (block 3):
GACGAGTTCGGGTATCGAGACGTGCTA: 0.569 z-score
TCAATTTTCATTAACTGACTGTGCTAG: 0.66 z-score
GTCGGTATCCTTCTCCTGACGTGCTAG: 0.635 z-score
